Results collected from several papers.
Numbered parts are unrelated; each lists some results of a single study. Positions count from the first letter of the parent shown.

Sample 1
Target: Sal-like protein 4, full length isoform A (SALL4, Homo sapiens, UniProt Q9UJQ4, residues 1-1053)
Chain of UniProt Q9UJQ4 (whole entry, looked up): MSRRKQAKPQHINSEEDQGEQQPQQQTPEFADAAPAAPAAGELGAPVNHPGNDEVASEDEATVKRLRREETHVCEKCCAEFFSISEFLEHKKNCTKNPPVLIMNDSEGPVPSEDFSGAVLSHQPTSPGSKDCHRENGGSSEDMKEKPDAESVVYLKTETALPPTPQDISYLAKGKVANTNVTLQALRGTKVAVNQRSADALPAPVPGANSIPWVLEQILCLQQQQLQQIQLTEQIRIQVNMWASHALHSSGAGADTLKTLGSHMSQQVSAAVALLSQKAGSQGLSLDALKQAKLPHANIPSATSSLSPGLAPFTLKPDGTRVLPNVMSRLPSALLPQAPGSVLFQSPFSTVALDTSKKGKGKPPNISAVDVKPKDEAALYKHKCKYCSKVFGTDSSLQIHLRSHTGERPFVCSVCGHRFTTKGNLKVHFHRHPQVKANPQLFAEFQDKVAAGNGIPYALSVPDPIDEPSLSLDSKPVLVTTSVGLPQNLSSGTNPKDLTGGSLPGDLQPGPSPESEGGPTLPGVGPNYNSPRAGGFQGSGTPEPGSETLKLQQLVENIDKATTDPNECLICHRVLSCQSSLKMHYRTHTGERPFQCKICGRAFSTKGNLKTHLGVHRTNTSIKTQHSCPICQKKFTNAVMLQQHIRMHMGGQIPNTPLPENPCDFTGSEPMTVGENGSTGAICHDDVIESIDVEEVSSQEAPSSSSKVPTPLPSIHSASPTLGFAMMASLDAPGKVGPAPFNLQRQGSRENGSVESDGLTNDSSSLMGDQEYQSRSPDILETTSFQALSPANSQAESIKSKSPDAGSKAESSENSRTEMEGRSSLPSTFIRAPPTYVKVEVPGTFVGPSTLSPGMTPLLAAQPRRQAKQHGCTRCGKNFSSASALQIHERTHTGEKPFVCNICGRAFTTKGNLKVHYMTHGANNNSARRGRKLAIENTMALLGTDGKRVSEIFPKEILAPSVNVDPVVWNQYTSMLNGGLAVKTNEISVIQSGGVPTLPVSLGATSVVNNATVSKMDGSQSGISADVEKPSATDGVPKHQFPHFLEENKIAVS
Method: universal PBM
Form: double-stranded DNA, one strand shown
Medium: in vitro
Tested at: 600 nM
Notes: 8-mer, flanks averaged, mean of replicates
Reading: higher = stronger binding
`ACCAGTAA` has an E-score of 0.209.
`ATCGTGCC` gave an E-score of -0.136.
The E-score of `CATTCAGA` is reported as 0.0401.
The E-score of `ATCGCTGG` is reported as -0.157.
`CTTCTCGA` has an E-score of -0.0432.
With `CGGTTACC` the E-score was -0.252.
`CTGTACCC` gave an E-score of -0.29.
For `GAACTGAA`, the E-score was 0.1.
With `ATGCTCTC` the E-score was -0.0404.
`GGGACAGA` has an E-score of -0.246.
`CTTACTCC` gave an E-score of 0.0589.

Sample 2
Target: CCNB3, cyclin fold, Cln2 fusion (human)
Method: yeast growth competition, sequencing
Medium: yeast
Notes: weak parent motif
Baseline: not given
Reading: higher = stronger binding
Starting sequence: ORC1 docking peptide (human); PRARKRLELGNLG; partner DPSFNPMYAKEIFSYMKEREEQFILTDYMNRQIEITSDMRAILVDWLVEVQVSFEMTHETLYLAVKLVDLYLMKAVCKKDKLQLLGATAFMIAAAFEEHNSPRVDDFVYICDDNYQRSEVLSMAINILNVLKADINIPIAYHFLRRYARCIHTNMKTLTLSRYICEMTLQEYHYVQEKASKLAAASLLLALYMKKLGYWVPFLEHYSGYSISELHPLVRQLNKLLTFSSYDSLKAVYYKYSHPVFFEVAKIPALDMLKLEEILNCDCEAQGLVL
Under “normalised enrichment score”, `PRARKRLELGGLG [N11G]` is recorded as 0.409.
`KRARKRLELGNLG [P1K]`: “normalised enrichment score” 0.595.
Under “normalised enrichment score”, `QRARKRLELGNLG [P1Q]` is recorded as 0.43.
Under “normalised enrichment score”, `VRARKRLELGNLG [P1V]` is recorded as -0.0498.
For `PRAYKRLELGNLG [R4Y]`, “normalised enrichment score” read 0.294.
For `PRARKRLENGNLG [L9N]`, “normalised enrichment score” read -0.101.
`PRARKRLKLGNLG [E8K]`: “normalised enrichment score” -0.0623.

Sample 3
Target: Phosphate system positive regulatory protein PHO4, full length, GST-tagged (PHO4, Saccharomyces cerevisiae, UniProt P07270, residues 1-312)
Method: competition protein-binding microarray
Form: double-stranded DNA, one strand shown
Medium: in vitro
Tested at: 2 µM
Notes: whole 60-bp probe, lowest competitor level
With: Cbf1 competitor, 0.05 µM
Reading: higher = stronger binding
Construct (chain): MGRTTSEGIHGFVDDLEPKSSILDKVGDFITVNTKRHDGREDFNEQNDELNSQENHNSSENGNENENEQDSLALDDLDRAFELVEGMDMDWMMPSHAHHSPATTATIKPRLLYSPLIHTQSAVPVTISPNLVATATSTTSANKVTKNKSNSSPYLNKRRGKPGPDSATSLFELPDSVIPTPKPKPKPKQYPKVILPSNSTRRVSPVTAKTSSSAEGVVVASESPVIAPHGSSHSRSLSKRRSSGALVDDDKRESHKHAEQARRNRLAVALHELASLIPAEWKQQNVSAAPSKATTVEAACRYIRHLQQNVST
For `CATACCCAACCTTGTCACCAGACTTAAGATATTTGTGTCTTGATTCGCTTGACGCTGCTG`, the fluorescence intensity was 3690 a.u.
`CTATTTTTATGAATTCCGCGGGATTCCTCTATATCTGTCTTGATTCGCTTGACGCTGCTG` has a fluorescence intensity of 3780 a.u.
`AGAAATGCCATTTTGCACGTGACGAAACAAATTGTGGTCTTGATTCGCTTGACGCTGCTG` gave a fluorescence intensity of 15500 a.u.
The fluorescence intensity of `CATACCCAACCTTGTAATGTGGGTGAAGATATTTGTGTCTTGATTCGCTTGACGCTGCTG` is reported as 4460 a.u.
The fluorescence intensity of `TGACCGCTCCACCGGCATGCGTGTAGTCATCCCGCAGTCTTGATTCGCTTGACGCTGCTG` is reported as 8060 a.u.
With `CCAAAAACCCTACGGCATGTGGGATTGGGACACCTTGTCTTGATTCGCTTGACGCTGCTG` the fluorescence intensity was 9530 a.u.
The fluorescence intensity of `CCCAGAGATATACCACACATGAGACTGAAAAAAGCAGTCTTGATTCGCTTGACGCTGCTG` is reported as 6540 a.u.
`CTAACGAAGGTTTGCCTCGTGGGTGACAAGCCAAGTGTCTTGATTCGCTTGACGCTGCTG` has a fluorescence intensity of 12300 a.u.
`CTTTCCCGATCTTATCACGTGTTTTTAGCACATTTGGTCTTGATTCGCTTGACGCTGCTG` gave a fluorescence intensity of 15000 a.u.
`GACGATGATAAACAGCACGATGTTTCCCCCGGCGGCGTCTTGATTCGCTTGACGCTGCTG` has a fluorescence intensity of 9270 a.u.
The fluorescence intensity of `AGGCAGACAAGCTGTCATGTGTTCTGATTATGCCATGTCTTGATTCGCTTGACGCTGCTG` is reported as 7820 a.u.

Mixed results
`PhoQ, residues 284 288 289 292 302 303 ALASRC` gave a fold induction of 18.9 (PhoP, residues 12 14 15 18 19 VHSCL (Escherichia coli, UniProt P23836); Sort-seq, item: YFP reporter; E. coli; PhoQ-PhoP variant library, with: 10 µM Mg2+; baseline: high Mg2+ state, higher = stronger signaling).
